Measured values collected from several papers.
Every numbered part comes from another study and shows a few of its results, in no order.
Sequence of UniProt Q14653 (whole entry, unmodified, looked up): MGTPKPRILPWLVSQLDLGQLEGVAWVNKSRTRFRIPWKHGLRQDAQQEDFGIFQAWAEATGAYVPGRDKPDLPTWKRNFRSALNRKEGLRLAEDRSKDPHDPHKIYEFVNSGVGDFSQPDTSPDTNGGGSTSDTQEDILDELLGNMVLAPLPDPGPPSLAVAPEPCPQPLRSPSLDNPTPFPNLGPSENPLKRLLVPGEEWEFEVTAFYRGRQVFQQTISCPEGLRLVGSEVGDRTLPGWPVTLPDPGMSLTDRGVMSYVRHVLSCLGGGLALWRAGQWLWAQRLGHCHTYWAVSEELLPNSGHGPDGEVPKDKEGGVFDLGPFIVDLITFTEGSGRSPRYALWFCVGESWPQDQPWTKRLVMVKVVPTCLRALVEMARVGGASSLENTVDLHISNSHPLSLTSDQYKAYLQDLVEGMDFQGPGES

Block 1
Target: Histone acetyltransferase KAT6A, winged helix 1, GST fusion (KAT6A, Homo sapiens, UniProt Q92794, residues 1-85)
Technique: protein binding microarray
Molecule type: double-stranded DNA, one strand shown
Medium: in vitro
Tested at: not given
Setting: 8-mer, flanks averaged, mean of 2 arrays, mostly near background
Reference: not given
Reading: higher = stronger binding
Target sequence (chain): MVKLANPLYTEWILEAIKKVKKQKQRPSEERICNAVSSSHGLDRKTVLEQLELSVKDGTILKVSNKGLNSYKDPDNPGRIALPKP
`GCATACAA` has an E-score of -0.0933.
`CAACTGTA` gave an E-score of -0.126.
For `CAGCGAAG`, the E-score was 0.0773.
The E-score of `ATCCTTAC` is reported as -0.0251.
For `ATGCGGGA`, the E-score was 0.223.
For `AGGATGAA`, the E-score was -0.172.
With `AAGATCGC` the E-score was 0.0398.
`CCCCGATA` has an E-score of 0.142.
With `CTTCTCCC` the E-score was -0.143.
For `CCATCTTA`, the E-score was -0.0654.
The E-score of `GGAATAGA` is reported as -0.0852.
`CCTGGCCG` gave an E-score of 0.0916.

Block 2
Target: Sal-like protein 4, full length isoform A (SALL4, Homo sapiens, UniProt Q9UJQ4, residues 1-1053)
Sequence of UniProt Q9UJQ4 (whole entry, looked up): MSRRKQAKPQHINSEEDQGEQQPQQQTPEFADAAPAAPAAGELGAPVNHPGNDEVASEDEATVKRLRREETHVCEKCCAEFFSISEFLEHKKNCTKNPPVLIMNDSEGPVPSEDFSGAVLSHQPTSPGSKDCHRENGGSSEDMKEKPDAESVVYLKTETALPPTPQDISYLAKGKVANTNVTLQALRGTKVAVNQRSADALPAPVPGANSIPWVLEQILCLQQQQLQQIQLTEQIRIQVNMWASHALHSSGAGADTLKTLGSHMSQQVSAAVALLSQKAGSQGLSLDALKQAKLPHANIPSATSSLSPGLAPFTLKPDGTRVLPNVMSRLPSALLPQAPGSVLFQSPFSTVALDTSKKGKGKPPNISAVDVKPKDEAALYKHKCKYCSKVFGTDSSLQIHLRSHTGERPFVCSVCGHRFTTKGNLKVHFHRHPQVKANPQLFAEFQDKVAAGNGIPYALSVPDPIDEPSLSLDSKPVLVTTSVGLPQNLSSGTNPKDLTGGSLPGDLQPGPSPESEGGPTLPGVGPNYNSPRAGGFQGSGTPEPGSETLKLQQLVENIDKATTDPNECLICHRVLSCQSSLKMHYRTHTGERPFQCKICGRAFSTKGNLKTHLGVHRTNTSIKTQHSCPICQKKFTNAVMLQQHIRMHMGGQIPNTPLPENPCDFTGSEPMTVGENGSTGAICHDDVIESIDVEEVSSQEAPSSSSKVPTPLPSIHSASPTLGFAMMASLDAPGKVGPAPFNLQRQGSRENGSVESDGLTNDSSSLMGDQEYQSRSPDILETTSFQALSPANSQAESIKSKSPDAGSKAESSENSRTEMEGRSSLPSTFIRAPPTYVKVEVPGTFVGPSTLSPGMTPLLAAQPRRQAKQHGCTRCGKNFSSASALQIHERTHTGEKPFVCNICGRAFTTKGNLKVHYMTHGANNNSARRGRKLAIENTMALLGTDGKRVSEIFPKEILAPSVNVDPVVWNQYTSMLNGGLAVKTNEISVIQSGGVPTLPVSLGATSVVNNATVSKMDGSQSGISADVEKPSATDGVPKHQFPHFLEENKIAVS
Technique: universal PBM
Molecule type: double-stranded DNA, one strand shown
Medium: in vitro
Tested at: 600 nM
Setting: 8-mer, flanks averaged, mean of replicates
Reading: higher = stronger binding
For `AAAGCTCG`, the E-score was -0.141.
`CTCCAAGA` gave an E-score of -0.0171.
For `CTTCTCTC`, the E-score was -0.00905.

Block 3
Target: PABPC1L2, full length, GST fusion (mouse, UniProt A0ABA7IW68)
Technique: RNAcompete
Molecule type: RNA
Medium: in vitro
Tested at: 20 nM
Setting: 7-mer, probes averaged, single round
Reference: mean of 7-mers
Reading: higher = stronger binding
Construct (chain): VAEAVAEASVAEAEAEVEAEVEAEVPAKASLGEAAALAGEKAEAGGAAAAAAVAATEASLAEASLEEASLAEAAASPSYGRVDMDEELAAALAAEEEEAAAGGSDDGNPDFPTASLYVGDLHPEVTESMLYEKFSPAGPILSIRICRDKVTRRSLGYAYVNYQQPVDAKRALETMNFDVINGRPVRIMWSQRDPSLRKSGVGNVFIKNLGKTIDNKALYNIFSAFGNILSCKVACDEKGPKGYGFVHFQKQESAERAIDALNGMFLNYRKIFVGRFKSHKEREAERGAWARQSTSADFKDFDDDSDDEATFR
With `GCAAAUG` the 7-mer Z-score was 0.000733.
`ACUUGGG` has a 7-mer Z-score of 0.305.
`AGUAUUA` has a 7-mer Z-score of -0.153.
For `GAUCGAC`, the 7-mer Z-score was -0.13.

Mixed results
IRF7 S101K/S471D/S472D/S475D/S476D/S477D/S483D/S484D/S487D full length, phosphomimetic: Interferon regulatory factor 7, full length, phosphomimetic (IRF7, Homo sapiens, UniProt Q92985, residues 1-503, S101K/S471D/S472D/S475D/S476D/S477D/S483D/S484D/S487D)
Sequence of UniProt Q92985 (whole entry, unmodified, looked up): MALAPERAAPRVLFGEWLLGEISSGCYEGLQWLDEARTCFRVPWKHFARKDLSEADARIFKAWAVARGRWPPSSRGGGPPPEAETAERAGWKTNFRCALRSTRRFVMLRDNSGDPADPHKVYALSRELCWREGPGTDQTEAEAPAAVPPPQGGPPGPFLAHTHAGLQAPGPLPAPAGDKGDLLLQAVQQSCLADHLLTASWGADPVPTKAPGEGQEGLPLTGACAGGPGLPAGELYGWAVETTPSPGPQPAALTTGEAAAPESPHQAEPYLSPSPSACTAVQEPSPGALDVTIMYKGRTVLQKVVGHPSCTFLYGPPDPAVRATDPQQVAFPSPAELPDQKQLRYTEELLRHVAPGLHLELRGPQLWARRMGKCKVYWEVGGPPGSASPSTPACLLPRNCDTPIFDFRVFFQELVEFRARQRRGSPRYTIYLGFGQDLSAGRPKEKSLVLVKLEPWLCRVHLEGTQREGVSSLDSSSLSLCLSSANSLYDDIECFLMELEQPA
`GCCTAGCACTCAGTTTTAGGTCCCTTACTGTGCTAGGTCTTGATTCGCTTGACGCTGCTG` gave a log fluorescence of 0.645 z-score (IRF7 S101K/S471D/S472D/S475D/S476D/S477D/S483D/S484D/S487D full length, phosphomimetic; protein-binding microarray; double-stranded DNA, one strand shown, in vitro; 250 nM, 60-bp whole probe, together with: salmon DNA 0.4 mg/ml; reference: random background probes, higher = stronger binding).
With `PhoQ, residues 284 288 289 292 302 303 TNSAEL` the fold induction was 5.67 (PhoP, residues 12 14 15 18 19 NYFRM (Escherichia coli, UniProt P23836); Sort-seq, measured: YFP reporter; E. coli; PhoQ-PhoP variant library, together with: 10 µM Mg2+; reference: high Mg2+ state, higher = stronger signaling).
For `GCCTAGCACTTAGATCTCCTTTTCCTTTAGTGCTAGGTCTTGATTCGCTTGACGCTGCTG`, “fitted relative affinity” read 3.67 z-score (Interferon regulatory factor 3, full length, phosphomimetic (IRF3, Homo sapiens, UniProt Q14653, residues 1-427, S386D/S396D/S398D/S402D/T404D/S405D); protein-binding microarray; double-stranded DNA, one strand shown, in vitro; 2540 nM top, 60-bp whole probe, together with: salmon DNA 0.4 mg/ml; reference: random background probes, higher = stronger binding).
With `GCCTAGCACTCATACTTCTCTTTTGGACTGTGCTAGGTCTTGATTCGCTTGACGCTGCTG` the log fluorescence was 0.779 z-score (IRF7 S101K/S471D/S472D/S475D/S476D/S477D/S483D/S484D/S487D full length, phosphomimetic; protein-binding microarray; double-stranded DNA, one strand shown, in vitro; 250 nM, 60-bp whole probe, together with: salmon DNA 0.4 mg/ml; reference: random background probes, higher = stronger binding).
For `GCCTAGCACTTAGATTTCAGACTGGATTAGTGCTAGGTCTTGATTCGCTTGACGCTGCTG`, “fitted relative affinity” read -0.106 z-score (Interferon regulatory factor 7, full length, phosphomimetic (IRF7, Homo sapiens, UniProt Q92985, residues 1-503, S471D/S472D/S475D/S476D/S477D/S483D/S484D/S487D); protein-binding microarray; double-stranded DNA, one strand shown, in vitro; 2200 nM top, 60-bp whole probe, together with: salmon DNA 0.4 mg/ml; reference: random background probes, higher = stronger binding).

Excerpt of the above (block 1):
`GCATACAA` has an E-score of -0.0933.
`CAACTGTA` gave an E-score of -0.126.
